{"data": "Measurements from different studies", "note": "Each line is one published result; not all experiments were run side by side. Values joined by “and” are separate records of one study, mostly repeats; a detail may differ. ± marks the error that the study gave."}
{"Structure (SMILES)": "C[C@H](CCC(=O)O)[C@H]1CC[C@H]2[C@@H]3CC[C@@H]4C[C@H](OS(=O)(=O)O)CC[C@]4(C)[C@H]3CC[C@]12C", "system": "healthy human volunteers, plasma", "conditions": "dose not given, 0 h, baseline phase, no drug", "plasma concentration": "305 ± 21 nM"}
{"Structure (SMILES)": "CC(=O)N(C)C1CCN(c2cc(F)cc(NC(=O)c3cc4c(F)ccc(C)c4[nH]3)c2)C1 (centres unmarked)", "system": "CD1 mouse, plasma", "conditions": "oral, 50 mg/kg, 2 h", "plasma concentration": "32.1 ng/mL"}
{"Structure (SMILES)": "C[C@H](CCC(=O)NCC(=O)O)[C@H]1CC[C@H]2[C@@H]3CC[C@@H]4C[C@H](O)CC[C@]4(C)[C@H]3C[C@H](O)[C@]12C", "system": "healthy human volunteers, plasma", "conditions": "dose not given, 0 h, baseline phase, no drug", "plasma concentration": "160 ± 48 nM"}
{"Structure (SMILES)": "COc1cccc(-c2n[nH]c(SCc3ccccn3)n2)c1OC", "system": "Sprague-Dawley rats, both sexes", "conditions": "oral dietary, 100 mg/kg/day, day 7, 24 h", "plasma concentration": "1810 ng/mL"}
{"Structure (SMILES)": "Cc1c(-c2ccc(N3CCc4cccc(C(=O)Nc5nc6ccccc6s5)c4C3)nc2C(=O)O)cnn1CC12CC3(C)CC(C)(C1)CC(OCCNCC[C@H](O)CO)(C3)C2", "system": "anaesthetized male beagle dog", "conditions": "iv infusion, 0.01 mg/kg/min, 135 min", "plasma concentration": "< 2 ng/mL"}
{"Structure (SMILES)": "COc1cc2c(cc1OC)CN(CCc1ccc(NC(=O)c3cc(OC)c(OC)cc3NC(=O)c3cnc4ccccc4c3)cc1)CC2", "system": "human, plasma", "conditions": "intravenous infusion, 5.9 mg/kg, 123 min", "plasma concentration": "3380 nM"}
{"Structure (SMILES)": "Cc1c(C(=O)O)ccc2c3n(nc12)[C@@H]1[C@H](C3)N(CC2CC2)[C@@]2(C(=O)Nc3cc(Cl)ccc32)[C@H]1c1cccc(Cl)c1F", "system": "female BALB/c nude mice, plasma", "conditions": "oral, 2 mg/kg once daily, 31 h, SJSA-1 tumour-bearing", "plasma concentration": "372 nM and 688 nM and 396 nM and 414 nM and 265 nM"}
{"Structure (SMILES)": "C[C@H](CCC(=O)NCCS(=O)(=O)O)[C@H]1CC[C@H]2[C@@H]3[C@H](O)C[C@@H]4C[C@H](O)CC[C@]4(C)[C@H]3C[C@H](O)[C@]12C", "system": "healthy human volunteers, plasma", "conditions": "dose not given, 0 h, baseline phase, no drug", "plasma concentration": "14.5 ± 3.8 nM"}
{"Structure (SMILES)": "CCN1CCN(Cc2ccc(NC(=O)c3ccc(C)c(NC(=O)c4cncc(-c5cccs5)c4)c3)cc2C(F)(F)F)CC1", "system": "C57BL/6 mouse, plasma", "conditions": "intraperitoneal, 20 mg/kg, 24 h, single dose", "plasma concentration": "not detected"}
{"Structure (SMILES)": "CN1CCN(c2ccc(OC(F)(F)F)c(Nc3ncc4c(n3)-c3c(c(C(N)=O)nn3CCO)CC4)c2)CC1", "test": "LC-MS/MS", "system": "human, plasma", "conditions": "oral, 12 mg/m2, 24 h post-dose", "plasma concentration": "21.2 ng/mL and 12.9 ng/mL and 34 ng/mL and 30.3 ng/mL and 28.1 ng/mL"}
{"Structure (SMILES)": "CCOCc1nc(O)c(-c2nnc(Cc3ccc(Cl)cn3)o2)c(O)c1-c1c(OC)cccc1OC", "system": "anaesthetized rats, plasma", "conditions": "intravenous infusion, 1 µg/kg/min for 15 min, 20 min washout", "plasma concentration": "115 ± 58 nM"}
{"Structure (SMILES)": "C[C@H](CCC(=O)NCCS(=O)(=O)O)[C@H]1CC[C@H]2[C@@H]3CC[C@@H]4C[C@H](O)CC[C@]4(C)[C@H]3C[C@H](O)[C@]12C", "system": "healthy human volunteers, plasma", "conditions": "dose not given, 0 h, baseline phase, no drug", "plasma concentration": "34 ± 18.1 nM"}
{"Structure (SMILES)": "CCn1c(C(=O)N(C2CC2)C2CC2)cc2c3c(ncn3C)c(Nc3cc(C)n(C)n3)nc21", "system": "cancer patients", "conditions": "oral, 200 mg single dose, day 1, 8.0 h", "plasma concentration": "932 ng/mL"}
{"Structure (SMILES)": "Cn1cc([C@H]2C[C@H]3CSC(N)=N[C@@]3(c3ccc(F)cc3F)CO2)cn1", "system": "male 129/SVE mouse, plasma", "conditions": "subcutaneous, 50 mg/kg, 3 h", "plasma concentration": "8920 nM"}
{"note": "For quick reference, copied from above:"}
{"Structure (SMILES)": "Cn1cc([C@H]2C[C@H]3CSC(N)=N[C@@]3(c3ccc(F)cc3F)CO2)cn1", "system": "male 129/SVE mouse, plasma", "conditions": "subcutaneous, 50 mg/kg, 3 h", "plasma concentration": "8920 nM"}
{"Structure (SMILES)": "CCOCc1nc(O)c(-c2nnc(Cc3ccc(Cl)cn3)o2)c(O)c1-c1c(OC)cccc1OC", "system": "anaesthetized rats, plasma", "conditions": "intravenous infusion, 1 µg/kg/min for 15 min, 20 min washout", "plasma concentration": "115 ± 58 nM"}
